Results gathered from unrelated publications.
Every numbered part comes from another study and shows a few of its results, in no order.

Study 1
Target: RING finger protein unkempt homolog, zinc fingers 1-6, GST-SBP tag (UNK, Homo sapiens, UniProt Q9C0B0, residues 30-357)
Sequence of UniProt Q9C0B0 (30-357, looked up): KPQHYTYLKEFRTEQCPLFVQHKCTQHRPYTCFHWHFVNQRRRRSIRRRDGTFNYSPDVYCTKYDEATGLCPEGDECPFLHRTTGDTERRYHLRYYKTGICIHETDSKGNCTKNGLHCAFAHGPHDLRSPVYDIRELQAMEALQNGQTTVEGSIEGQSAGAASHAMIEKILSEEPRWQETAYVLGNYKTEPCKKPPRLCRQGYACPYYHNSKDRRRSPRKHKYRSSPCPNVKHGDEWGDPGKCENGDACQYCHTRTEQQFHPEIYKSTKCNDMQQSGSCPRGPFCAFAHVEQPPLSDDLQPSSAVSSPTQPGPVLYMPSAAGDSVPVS
Method: RNA Bind-n-Seq
Molecule type: RNA
Medium: in vitro
Tested at: not given
Notes: RNA with constant flanks, human-mouse chimeric sites, ends assumed
Baseline: input RNA pool
Direction: higher = stronger binding
Measurement: bound/input enrichment
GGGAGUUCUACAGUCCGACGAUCAAAGAGAAACUAAAGCAAACUGAUUGAAAGAGGAUUGGCAAAGAGAAUUUCAUAGAGAAACUAGGAUUUAUUAGCAAACAUGAGUUAUAUUCCAGAGCGUCUCAGAAACCCCAGCCAAACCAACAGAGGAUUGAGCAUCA: 4.46 ratio
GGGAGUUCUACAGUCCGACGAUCUCGGAUGAGGUGCUGGGUCACUUUUCAUAUCCAGAUCCUUCACAGUGGACAGAUGAAGAAUUAGGUAUCCCUCCUGAUGACGAGGACUGACACUGUAAACUCUCUGGACGAGUAGGAGCACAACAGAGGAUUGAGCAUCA: 0.693 ratio
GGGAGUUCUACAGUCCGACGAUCCACACACUCUUCUGCGGGACCCUCAUCUUGCAGGCCCGAGCCUACGUGGGACCGCACGUCCUGGCAGUGGUGACUCGCACAGGGUUCUGCACGGCAAAAGGGGGCCUGGUGAGCUCCAUCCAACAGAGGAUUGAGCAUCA: 0.103 ratio
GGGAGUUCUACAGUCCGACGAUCGUACUGCAGCAGCAGGGAAAACUGCAGGAAGCUCUGAUGCAUUAUAAGGAGGCUAUUCGAAUCAGUCCUACCUUUGCUGAUGCUUAUUCUAAUAUGGGAAACACUCUAAAGGAGAUGCAGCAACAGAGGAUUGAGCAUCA: 0.143 ratio
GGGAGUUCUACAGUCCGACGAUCACAGUUAUAUUGUUGAGUUUCAUUUUCAUAUAUUCUUGUAGUGUCUGCUUGCCUGUGACUUCUGGUAAAAUAAGACUAGCCUUUGAAAAUAUUUUAGAUUUAACAUUAACAUUUUCUAAACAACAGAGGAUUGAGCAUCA: 20.6 ratio
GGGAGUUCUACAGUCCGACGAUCUCUUUAAAAAAAAAAUUACCUUUUCUGACAGUGCUUUCCCUCCCAUAGAUCCACGUUCAAGCUCAAAGGCCAAAACUUUUGCACGGAUCUGAUGAUGCUGAUGAAGAAAGAUUUCUGAGACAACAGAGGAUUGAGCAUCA: 0.531 ratio
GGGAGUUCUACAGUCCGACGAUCAUGCAGUAUGAGACCAACAGCAUGGACUUCAAAGUUGGGGCAGAUGGGACAGUCUUCGCCACCCGGGAGCUGCAGGUCCCCUCCGAGCAGGUGGCGUUUACCGUCACUGCAUGGGACAGCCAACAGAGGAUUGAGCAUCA: 0.124 ratio
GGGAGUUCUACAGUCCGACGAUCAAAGUGAUAACCAUGUUUGUCCAACGACAGGUAUUUUCGGAGAGCAAAGAUGAGAUUGCGUUAGUCCUCUAUGGCACAGAUGGCACUGACAAUCCCCUUGCUGGCAAGGACCAGUAUCAGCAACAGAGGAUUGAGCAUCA: 0.188 ratio
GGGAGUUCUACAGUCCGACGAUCAAAGAGUGGAUAGAGUGUGCACACGGGAUCGGUGGGACCCGGGCGAAAAAGGAGUGCAAGAUAGAGUAUGAUGAUUUCGAAGAGUGCUUGCUUCGGUAGAAAACGAUGAGGCGAAUGCAUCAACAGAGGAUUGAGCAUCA: 1.04 ratio
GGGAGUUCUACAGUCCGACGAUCGCUCUUGGGAAUGUAAUAAGUGCCUUGGGGGACAAGAGCAAGAGAGCCACCCAUGUCCCCUAUAGAGACUCUAAGCUGACAAGACUCUUGCAGGAUUCCCUUGGGGGUAACAGCCAAACCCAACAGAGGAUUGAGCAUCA: 0.148 ratio
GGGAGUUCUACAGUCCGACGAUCAUAAAAGCUAUGUUGAGUGGUCCAGGUCAGUUUGCUGAGAAUGAAACCAACGAGGUCAAUUUUAGAGAGAUCCCCUCACAUGUGCUAUCAAAAGUGUGCAUGUAUUUUACGUACAAGGUCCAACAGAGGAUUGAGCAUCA: 0.508 ratio

Study 2
Target: Ras GTPase-activating protein-binding protein 1, C-terminal RGG region (G3BP1, Homo sapiens, UniProt Q13283)
Sequence of UniProt Q13283 (whole entry, looked up): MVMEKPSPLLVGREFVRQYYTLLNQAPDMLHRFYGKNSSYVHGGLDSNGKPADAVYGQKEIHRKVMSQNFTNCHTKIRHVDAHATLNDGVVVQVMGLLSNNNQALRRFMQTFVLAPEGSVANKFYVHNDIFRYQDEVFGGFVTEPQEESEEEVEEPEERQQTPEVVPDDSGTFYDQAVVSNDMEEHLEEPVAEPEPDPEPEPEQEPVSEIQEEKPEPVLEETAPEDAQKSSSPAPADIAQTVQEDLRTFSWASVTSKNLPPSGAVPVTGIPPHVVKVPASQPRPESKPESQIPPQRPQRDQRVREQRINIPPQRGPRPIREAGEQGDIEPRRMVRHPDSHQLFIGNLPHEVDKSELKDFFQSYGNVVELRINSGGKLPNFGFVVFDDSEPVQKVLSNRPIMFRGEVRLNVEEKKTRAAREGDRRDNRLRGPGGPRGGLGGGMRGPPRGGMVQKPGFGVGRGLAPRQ
Method: RNA Bind-n-Seq
Molecule type: RNA
Medium: in vitro
Tested at: 1 µM
Notes: whole 134-nt RNA, ends assumed
Added: 150 mM KCl
Baseline: input library
Direction: higher = stronger binding
Measurement: log2 enrichment
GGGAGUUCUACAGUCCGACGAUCUAACUUUAGAGGAGGAUCUGAUGGAUGUGGCAGUGGACGUGGAUUUGGGGAUGGCUAUAAUGGGUAUGGAGGAGGACCUGGAGGUGGCAAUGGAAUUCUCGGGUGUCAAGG: -1.52
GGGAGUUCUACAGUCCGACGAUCGCAGGAAGAAAAAACAAAUGGAAAUGCUUCGGAUAGUGGCAGGGGUGGGGGUUGCUAAGGAAAGGGUGGGAUGGGAGUGGGUAAAGAGUUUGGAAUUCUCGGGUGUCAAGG: 2.49
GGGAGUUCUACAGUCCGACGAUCCUCAAGUCCUGUGCUACACAUCGUAUGUACCGAAUCGGCCGGGGCCGGGGCCGGAAAGUAUUAUGUUACGCCGUUCGGAUCUGCACUUCCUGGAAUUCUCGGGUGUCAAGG: -1.75
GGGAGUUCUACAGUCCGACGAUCUGGCCCUGGUGGCAUGCGGGGAGGAAGAGGUGGCCUCAUGGAUCGUGGGGGUCCCGGUGGAAUGUUCAGAGGUGGCCGUGGUGGAGACAGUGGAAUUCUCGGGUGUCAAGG: 1.2
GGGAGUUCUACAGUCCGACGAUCGCAGGAAGUAAAAACAAAUGGAAAUGCUUAGGAUAGUGGCAGGGGUGGGGGUUGCUAAGGAAAGGGUGGGAUGGGAGUGGGUAAAGAGUUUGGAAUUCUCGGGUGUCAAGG: 2.31
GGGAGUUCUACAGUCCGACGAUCAAGUCCUGUGCUACACAUCGUAUGUACCGAAUCGGGGAAAAAGGGGUGGGGAGGGGAAAGUAUUAUGUUACGCCGUUCGGAUCUGCACUUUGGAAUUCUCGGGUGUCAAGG: 1.81
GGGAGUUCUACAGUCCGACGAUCACCAUGAAGGUGGGCAUCUUUGGGAAGUGGGGCAAGGGGGGGAUAGGGAGGGGGGUAACACUUUGGGAACAGGUGGUCCCAGGUCGUUUCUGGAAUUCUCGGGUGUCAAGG: -1.26
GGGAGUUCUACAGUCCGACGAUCACCAUGAAAGUGGGCAUCUUUGGGAAGUGGGGCAAGGGGGGGAUAGGGAGGGGGGUAACACUUUGGGAACAGGUGGUCCCAGGUCGUUUCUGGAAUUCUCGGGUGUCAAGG: -0.838
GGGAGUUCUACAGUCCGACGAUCGUCCUGUGCUACACAUCGUAUGUACCGAAUCGGGGUUUUUGGGGUGGGGAAAAAGGGGAAAGUAUUAUGUUACGCCGUUCGGAUCUGCACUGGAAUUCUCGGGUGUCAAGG: 1.67
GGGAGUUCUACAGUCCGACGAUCUGGGAGGUGGGUUUUGUUUAUUUUUUUAGCUCAUUUCCAGGGGUGGGAAUUUUUUUUUAAUAUGUGUCAUGAAUAAAGUUGUUUUUGAAAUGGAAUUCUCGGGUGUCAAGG: 2.67

Study 3
Target: RNA binding protein fox-1 homolog 2, RRM domain, GST-SBP tag (RBFOX2, Homo sapiens, UniProt O43251-10, residues 100-194)
Method: RNA Bind-n-Seq
Molecule type: RNA
Medium: in vitro
Tested at: 365 nM
Notes: natural RNA segment, single round, ends assumed
Baseline: no-protein control
Direction: higher = stronger binding
Measurement: RBNS enrichment (R)
Construct (chain): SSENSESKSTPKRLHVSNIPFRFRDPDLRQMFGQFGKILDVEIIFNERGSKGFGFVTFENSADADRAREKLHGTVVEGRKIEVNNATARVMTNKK
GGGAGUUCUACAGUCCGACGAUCCUACUCCCACACUUGCUUGUGAAACGUGUACCAGCUACCUAAGGAGGGCCAAGGCAGGAAGGGCCAGGGCCUCCUCUGUCCUUACCAACUCUGGGAAGUCAGCUCUGCCGUGGAAUUCUCGGGUGCCAA: 0.758
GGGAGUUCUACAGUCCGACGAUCGGAGGACCUUUCCUUGGGGCCCUGCUUCAUGACGAUGCUGCCUGUGUCACCCUCUACCAUCUGUAAACAACUGGGUGCCUUCCCCGACCACACCCCAAUGCCUUCCCAGCUGGAAUUCUCGGGUGCCAA: 0.514
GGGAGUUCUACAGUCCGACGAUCCCACAUCAGUGUGCUGAGUACCUGACCUCCAGGAUCUCCUCCACUUUGUUCUCACACCCCACUGCCCAACAGAUUCCUUUGGAUGCUGUCUGGAACAGGAAAGAGGUAUAUGGAAUUCUCGGGUGCCAA: 0.306
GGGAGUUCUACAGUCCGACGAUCGCUCAGGCAGACAAAUCGCUCUAGCUCAGAAGUUGCAGAGCAGCCUGGGCAACAUGGUGAAACCCGUCUCUACCAAACAGACAAAAAGCAGCCAGGCGUGGUGGCACAUCUGGAAUUCUCGGGUGCCAA: 0.486
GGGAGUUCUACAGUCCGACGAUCCUUCUGCCCUGCUUUUGCUAGGUCACAGAGGAUCUGCUUGGUCUUGAUAAGCUAUGUUGUUGCACUUUAAACAUUUAAAUUAUACAAUCAUCAACCCCCAACCCUCUGGGUGGAAUUCUCGGGUGCCAA: 0.428
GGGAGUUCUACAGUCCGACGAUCAAACCCCACACUAUGUAAUAGAAACACAUGUGUUUUUAUGUCUCAAAUAAAACUAUUAUAUCACUUGUCUCAGGCUCUAGAAACUUCUUUUCCACAGGUCAAUCCAAAUUUGGAAUUCUCGGGUGCCAA: 0.722
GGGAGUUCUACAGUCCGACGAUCCUUAGAGAAAUUAAGAGGUAUCUUUGAUGUAUCUACCAGUAUUCAAUAGUAACAUUUACCUGUCCACUGUGAAUCAAAGCCUGGGGCACGCUACUCAACCUUAGACACACUGGAAUUCUCGGGUGCCAA: 0.389
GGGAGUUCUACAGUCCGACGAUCAUGAAGUGCACUGUUCUCUCUUCAUUACGGUCCUGUUUAAGAGCCCAGCUAGUCUAUCUGAGCUCUCGCCUCCAUCCUUGUUUUAAUCAUGCUUCUACAAGGUGAAGUGUUGGAAUUCUCGGGUGCCAA: 0.372
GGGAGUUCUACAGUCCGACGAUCGGGUCUGCUUAACUGCCAAGAGCAGGUCCUGGAGUUCCCUUCACCUGCAGAGUCCUUUUCAUGACCUAGGAGGUCUUAUUCAAAGCCCUCAUUGACAGAGGAGGAAACAGUGGAAUUCUCGGGUGCCAA: 0.221

Study 4
Target: Histone acetyltransferase KAT6A, winged helix 1, GST fusion (KAT6A, Homo sapiens, UniProt Q92794, residues 1-85)
Method: protein binding microarray
Molecule type: double-stranded DNA, one strand shown
Medium: in vitro
Tested at: not given
Notes: 8-mer, flanks averaged, mean of 2 arrays, mostly near background
Baseline: not given
Direction: higher = stronger binding
Measurement: E-score
Construct (chain): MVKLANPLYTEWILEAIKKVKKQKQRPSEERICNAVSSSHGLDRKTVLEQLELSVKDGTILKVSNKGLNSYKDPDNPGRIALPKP
AATTATAG: -0.145
ACTTCATC: -0.196
TAGTCCCA: -0.17
CCCTACAA: -0.267
ACGCAAAT: 0.0794
AGGCAACC: -0.127
AACAGACT: -0.0776
CACCGGCC: 0.32
GCGGCAAC: 0.36
GTATTCAA: -0.0417
GGCCCTAA: -0.0192
ATAGGCAC: -0.148
CCCGGGCC: 0.397
CATTATCA: -0.109
AGGATTAC: -0.0586
CCCAGCGG: 0.125
CGAAAGGA: -0.0396
CCCTTAAC: -0.11
AGTAGTAG: 0.0988
CCGCCAGC: 0.263
GTGTGTTA: -0.00563
CAATAGCC: -0.0131
GTGAACCA: -0.0952
CACATTAC: 0.0259
CAGAAGCG: 0.0874

A few entries again (study 4):
GCGGCAAC: 0.36
AGGATTAC: -0.0586
AACAGACT: -0.0776
GTGAACCA: -0.0952
CAATAGCC: -0.0131
CCCTACAA: -0.267
ACTTCATC: -0.196
CCGCCAGC: 0.263
